Measurements from different studies.
Each line is one published result; not all experiments were run side by side. ± gives the spread as reported.
Cell line: HCT-116

O=C(Cn1c(=O)c(Cc2ccccc2)nc2ccccc21)NN1C(=O)c2ccccc2C1=O
mRNA level (qRT-PCR, refers to: BAX; concentration not given, 72 h; reference: untreated): 3.04 ± 0.032 fold

CC(=O)OC[C@H]1O[C@@H](Sc2sc(C(=O)c3ccc(Br)cc3)c(N)c2-c2nc3ccccc3s2)[C@H](OC(C)=O)[C@@H](OC(C)=O)[C@H]1OC(C)=O
growth (SRB; 10 µM, 48 h; reference: untreated): 98.8%

O=C(COc1ccc(/C=N/Nc2nc(-c3ccc(Br)cc3)cs2)cc1)N1CCN(C(=O)COc2ccc(/C=N/Nc3nc(-c4ccc(Br)cc4)cs3)cc2)CC1
inhibition (cell growth or viability, SRB; 100 µM, 48 h): 74.8%

Cc1ccc(C(C)C)cc1.[Au][S]C1=NCCS1.[Cl][Ru][Cl].c1ccc(P(CP(c2ccccc2)c2ccccc2)c2ccccc2)cc1
IC90 (cell growth or viability, trypan blue; 48 h): 23.2 µM

N#Cc1c(F)c(F)c2nc(SCc3ccc4ccccc4c3)nc(N)c2c1F
cells in G1 phase (DAPI staining imaging; 2.56 µM, 24 h): 25.2%

O=c1c(Cc2ccccc2)nc2ccccc2n1Cc1cn(-c2ccc(S(=O)(=O)Nc3ncccn3)cc2)nn1
selectivity index (MTT; reference: HCT-116 over normal colonocytes): 2.12

CSc1nc(Nc2ccc(/C(C)=N/NC(=O)c3ccc([N+](=O)[O-])cc3[N+](=O)[O-])cc2)c(C#N)c(-c2ccccc2)n1
total apoptotic cells (annexin V-FITC/PI flow cytometry; concentration not given): 21.4%

CCCc1c(O)c(O)cc(C(=O)O)c1COC1OC(CO)C(O)C(O)C1O (stereo not shown)
mRNA level (Wnt/β-catenin signalling, RT-qPCR, refers to: B9L; 25 µM; reference: HPRT): no effect

N=C(N)NCCC[C@@H](N)C(=O)N[C@@H](CCCNC(=N)N)C(=O)N[C@@H](Cc1ccc(C(F)(F)F)cc1)C(=O)N[C@@H](CCCNC(=N)N)C(=O)N[C@@H]1CSCCS(=O)(=O)CCSC[C@@H](C(=O)N[C@H](CCCNC(=N)N)C(=O)N[C@@H](CC2CCCCC2)C(=O)N[C@@H](CCCNC(=N)N)C(=O)N2Cc3ccccc3C2C(N)=O)NC(=O)[C@H](Cc2cccc3ccccc23)NC(=O)[C@H](Cc2ccc(O)cc2)NC1=O (stereo partly shown)
EC50: 14.3 ± 2.5 µM

NS(=O)(=O)c1ccc(-n2cc(Cn3c(=O)c(Cc4ccccc4)nc4ccccc43)nn2)cc1
mRNA level (qRT-PCR, refers to: VEGF; concentration not given, 72 h; reference: untreated): 0.615 ± 0.004 fold

CC(C)(C)CC(C)(C)Nc1c(-c2ccc3c(c2)OCO3)nc2cnccn12
cell migration (scratch; 50 µM, 24 h; reference: untreated): 20.6%

Cc1ccc(C(=O)N(Cc2ccc(C(F)(F)F)cc2)C2CC2)c(O)c1O
cell migration (wound healing; 20 µM, 24 and 48 h): decreased

CCC(=C(c1ccc(Cl)cc1)c1ccc(OCCCN(C)C)cc1)c1ccc(OC)cc1
GI50 (cell growth or viability, SRB): 0.86 µM

CCOC(=O)C/C(C)=N/NC(=O)c1nc2ccccc2n(C)c1=O
inhibition (cell growth or viability, MTT; 10 µM): 96.4%

CC1CCCN(CCCNC(=O)C2=Cc3sc4c(c3CS2)CCCC4)C1 (stereo not shown)
esterified cholesterol (20 µM, 24 h; reference: vehicle): 13.1 fold

CC1(CO)C(O)CCC2(C)C(C=CC3=CCOC3=O)C(CO)=CCC12 (stereo not shown)
inhibition (cell growth or viability, MTT; 20 µM, 48 h): 3.79%

COCCSc1nc(N)c2c(F)c(C#N)c(F)c(Cl)c2n1
cells in G1 phase (DAPI staining imaging; 1.02 µM, 24 h): 49.5%

N=C(N)NCCC[C@@H](N)C(=O)N[C@@H](CCCNC(=N)N)C(=O)N[C@@H](Cc1c(F)c(F)c(F)c(F)c1F)C(=O)N[C@@H](CCCNC(=N)N)C(=O)N[C@@H]1CSCc2ccccc2CSC[C@@H](C(=O)N[C@H](CCCNC(=N)N)C(=O)N[C@@H](CC2CCCCC2)C(=O)N[C@@H](CCCNC(=N)N)C(=O)N2Cc3ccccc3C2C(N)=O)NC(=O)[C@H](Cc2cccc3ccccc23)NC(=O)[C@H](Cc2ccc(O)cc2)NC1=O (stereo partly shown)
EC50: 11.2 ± 1.2 µM

COc1ccc(C2=Nn3c(NN=C4C(=O)N(Cc5ccccc5)c5ccc(Cl)cc54)nnc3SC2)cc1
inhibition (cell growth or viability, SRB; 10 µM): 46%

COc1cc(CNC(=O)C[C@H](C)CCC=C(C)C)ccc1OCc1cn(-c2ccccc2Cl)nn1
growth percent (SRB; 10 µM, 48 h): 49.7%

O=C(NCCc1cccc(F)c1)[C@@H]1C[C@@H](Sc2nc3ccccc3[nH]2)CN1Cc1cccc(Cl)c1
effective concentration (cell invasion, inhibitor): 1 to 10 µM

Cc1ccc(C(C)C)cc1.[Cl][Ru]([Cl])[P](CP(c1ccccc1)c1ccccc1)(c1ccccc1)c1ccccc1
IC75 (cell growth, trypan blue exclusion; 48 h, DMSO 1%): 229 ± 2.3 µM

COc1cc(CNC(=O)C[C@H](C)CCC=C(C)C)ccc1OCc1cn(-c2ccc(C#N)cc2)nn1
growth percent (SRB; 10 µM, 48 h): 29.4%

COC(=O)Cn1c(=O)c(Cc2ccccc2)nc2ccccc21
selectivity index (MTT; reference: HCT-116 over normal colonocytes): 0.845

C=C1CC[C@@H]2[C@](C)(CO)[C@H](O)CC[C@@]2(C)[C@@H]1/C=C/C1=CCOC1=O
inhibition (cell growth or viability, MTT; 20 µM, 48 h): 0%

CC/C=C\C/C=C\C/C=C\C/C=C\C/C=C\C/C=C\CCC(=O)Nc1ccn(C2OC(CO)C(O)C2(F)F)c(=O)n1 (stereo not shown)
GI50 (cell growth or viability, SRB): 0.0311 µM

COc1ccc(NC(=O)N/N=C2\CC3(CCN(C)CC3)Oc3ccccc32)cc1
apoptotic cells (annexin V-FITC/PI; concentration not given, 24 h, Total apoptosis): 47.3%

COC(=O)N[C@H]1CC[C@@H](Nc2cc(NCc3ccccc3F)n3ncc(C(C)C)c3n2)CC1
GI50 (cell growth or viability, SRB): 3.2 µM

COc1cc(CNC(=O)C[C@H](C)CCC=C(C)C)ccc1OCc1cn(-c2ccccc2[N+](=O)[O-])nn1
growth percent (SRB; 10 µM, 48 h): 49.1%

COC(=O)CCNC(=O)CNC(=O)CCn1nc(Cc2ccccc2)c2ccccc2c1=O
early apoptotic cells (0.32 µM, 48 h): 19.9%

COc1cc(CNC(=O)C[C@H](C)CCC=C(C)C)ccc1OCc1cn(-c2cccc([N+](=O)[O-])c2)nn1
growth percent (SRB; 10 µM, 48 h): 18.6%

Cc1nc2ccccc2c(=O)n1N
viability (cell growth or viability, LDH; 200 µg/mL, 24 h): 46.5%

O=C(Cn1c(=O)c(Cc2ccccc2)nc2ccccc21)OCCNCCO
mRNA level (qRT-PCR, refers to: BCL-2; concentration not given, 72 h; reference: untreated): 0.213 ± 0.012 fold

COc1cc(CNC(=O)C[C@H](C)CCC=C(C)C)ccc1OCc1cn(-c2ccc(Cl)cc2Cl)nn1
growth percent (SRB; 10 µM, 48 h): 53.1%

For quick reference, copied from above:
C=C1CC[C@@H]2[C@](C)(CO)[C@H](O)CC[C@@]2(C)[C@@H]1/C=C/C1=CCOC1=O
inhibition (cell growth or viability, MTT; 20 µM, 48 h): 0%

CC/C=C\C/C=C\C/C=C\C/C=C\C/C=C\C/C=C\CCC(=O)Nc1ccn(C2OC(CO)C(O)C2(F)F)c(=O)n1 (stereo not shown)
GI50 (cell growth or viability, SRB): 0.0311 µM

COc1ccc(NC(=O)N/N=C2\CC3(CCN(C)CC3)Oc3ccccc32)cc1
apoptotic cells (annexin V-FITC/PI; concentration not given, 24 h, Total apoptosis): 47.3%
